# Measured values from different studies.
# Numbered parts are unrelated; each lists some results of a single study.

# Study 1
# Target: Fragile X messenger ribonucleoprotein 1, C-terminal low-complexity region (Fmr1, Mus musculus, UniProt P35922)
# Method: RNA Bind-n-Seq
# Molecule type: RNA
# Medium: in vitro
# Tested at: 200 nM
# Setting: whole 134-nt RNA, ends assumed
# Added: 150 mM LiCl
# Baseline: input library
# Direction: higher = stronger binding
# All molecules: 7-deaza-guanosine replaces G
# Shared flanks, not repeated: GGGAGUUCUACAGUCCGACGAUC … UGGAAUUCUCGGGUGUCAAGG
Strand,log2 enrichment
ACCAUGCAGGUGGGCAUCUUUGGGAAGUGGGGCAAGGGGGGGAUAGGGAGCGGGGUAACACUUUGGGAACAGGUGGUCCCAGGUCGUUUC,0.749
AAGUCCUGUGCUACACAUCGUAUGUACCGAAUCAAACCCAAAUUUAAAUUUUUAAAAAAGUAUUAUGUUACGCCGUUCGGAUCUGCACUU,-0.682
UGGCCCUGGUGGCAUGCGGGGAGGAAGAGGUGGCCUCAUGGAUCGUGGUGGUCCGGGUGGAAUGUUCAGAGGUGGCCGUGGUGGAGACAG,-0.138
AAGUCCUGUGCUACACAUCGUAUGUACCGAAUCGGGGCCCGGGGCCCGGGGCCCGGGAAAGUAUUAUGUUACGCCGUUCGGAUCUGCACU,-1.98
CACAGACAACACGCAAAAACACAGACACAGAGGGAAGGGGUUGGGAUGGGGACAGGGUGCACAGCAGGGCGGGGUAGGACCCCAGCCCCU,1.06
AGUCCUGUGCUACACAUCGUAUGUACCGAAUCGGAAAAGGGGAAAAGGGGAAAAGGGGAAAGUAUUAUGUUACGCCGUUCGGAUCUGCAC,0.244
CAAGUCCUGUGCUACACAUCGUAUGUACCGAAUCGGGUUUGGUUUGGGGUUUGGGGAAAGUAUUAUGUUACGCCGUUCGGAUCUGCACUU,-1.87
UAACUUUAGAGGAGGAUCUGACGGAUAUGGCAGUGGACGUGGAUUUGGGGAUGGCUAUAAUGGGUAUGGAGGAGGACCUGGAGGUGGCAA,0.454
UCCUCAAGUCCUGUGCUACACAUCGUAUGUACCGAAUCGGUGGUGGGGUGGGAAAGUAUUAUGUUACGCCGUUCGGAUCUGCACUUCCAG,1.03
CCUCAAGUCCUGUGCUACACAUCGUAUGUACCGAAUCGGAGGUUUGGAAAGGAAAGUAUUAUGUUACGCCGUUCGGAUCUGCACUUCCAG,-0.735
UCCUGUGCUACACAUCGUAUGUACCGAAUCGGGUUUUUGGGGUUUUUGGGGUUUUUGGGGAAAGUAUUAUGUUACGCCGUUCGGAUCUGC,-1.11

# Study 2
# Target: Interferon regulatory factor 7, full length, phosphomimetic (IRF7, Homo sapiens, UniProt Q92985, residues 1-503, S101K/S471D/S472D/S475D/S476D/S477D/S483D/S484D/S487D)
# UniProt Q92985, sequence (whole entry, unmodified, looked up): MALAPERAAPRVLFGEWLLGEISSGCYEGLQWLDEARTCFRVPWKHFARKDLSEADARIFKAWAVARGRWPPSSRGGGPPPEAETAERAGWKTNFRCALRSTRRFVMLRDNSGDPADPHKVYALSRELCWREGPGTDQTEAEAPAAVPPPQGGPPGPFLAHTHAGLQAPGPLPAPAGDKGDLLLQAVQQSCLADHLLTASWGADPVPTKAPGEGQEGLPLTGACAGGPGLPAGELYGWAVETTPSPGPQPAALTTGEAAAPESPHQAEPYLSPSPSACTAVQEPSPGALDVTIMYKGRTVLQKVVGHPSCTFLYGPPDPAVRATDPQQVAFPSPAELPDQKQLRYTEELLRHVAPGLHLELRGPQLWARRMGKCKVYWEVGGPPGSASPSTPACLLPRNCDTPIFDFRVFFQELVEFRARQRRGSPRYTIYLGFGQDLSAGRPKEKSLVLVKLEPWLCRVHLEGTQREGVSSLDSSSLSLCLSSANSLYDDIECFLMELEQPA
# Method: protein-binding microarray
# Molecule type: double-stranded DNA, one strand shown
# Medium: in vitro
# Tested at: 250 nM
# Setting: 60-bp whole probe
# Added: salmon DNA 0.4 mg/ml
# Baseline: random background probes
# Direction: higher = stronger binding
# Shared flanks, not repeated: GCCTAGCAC … GTCTTGATTCGCTTGACGCTGCTG
Strand,log fluorescence [z-score]
TCACATTTCACAGTTAAACTGTGCTAG,1.35
GACGATTTCAGTCTCGAAACGTGCTAG,1.17
GACGGTCTCAGTCTCGAGACGTGCTAG,0.0921
GACCAACTGAGACTGGAGACGTGCTAG,-0.0198
TTAGATTTCACACTGGATTAGTGCTAG,0.077
GACGGTATCCTTATTCTGACGTGCTAG,0.164
AAATGTTTTGTTTTTCATTAGTGCTAG,1.76
GACGACTCCAGTTTCGAGACGTGCTAG,3.55
TCAGTTTTCAGTCCTGGACTGTGCTAG,0.967
TTAGGTCTCCGACTGCTTTAGTGCTAG,0.000945
CACGGTCTCGGTTTCGGGACGTGCTAG,7.97
AAGTGTGCCCATCTCTGCTCGTGCTAG,0.000666
TTAGATTCCAGTTTCGATTGGTGCTAG,10.8
GACGGTATCGGGACTGGGGACGTGCTA,-0.261
CCTTTTATGGTTTTTTTTTAGTGCTAG,1.85
GACGGTATACTTCTCCTGACGTGCTAG,0.142
TCAGTCTTCCCTTTTAAACTGTGCTAG,1.05
AGCAGGGGCGCAGGTAGGTGGTGCTAG,-1.22
TCAGTTTTGTGTCTGGGACTGTGCTAG,0.584
TCAGATTTTGCTTTCATACTGTGCTAG,0.237
GACGGTATCGACTTTGGGGACGTGCTA,0.477
GTAGGCTTCTATGTAGTTGAGTGCTAG,-0.715
TTAGATATCGGGACAGGATTAGTGCTA,0.398
TTAAGTTTCGGGTATCGGTTAGTGCTA,8.33
GACCAACTGAGTCTCGAGACGTGCTAG,0.6

# Study 3
# Target: Histone acetyltransferase KAT6A, both winged helices, GST fusion (KAT6A, Homo sapiens, UniProt Q92794, residues 1-181)
# Method: protein binding microarray
# Molecule type: double-stranded DNA, one strand shown
# Medium: in vitro
# Tested at: not given
# Setting: 8-mer, flanks averaged, mean of 2 arrays, mostly near background
# Baseline: not given
# Direction: higher = stronger binding
# Target sequence (chain): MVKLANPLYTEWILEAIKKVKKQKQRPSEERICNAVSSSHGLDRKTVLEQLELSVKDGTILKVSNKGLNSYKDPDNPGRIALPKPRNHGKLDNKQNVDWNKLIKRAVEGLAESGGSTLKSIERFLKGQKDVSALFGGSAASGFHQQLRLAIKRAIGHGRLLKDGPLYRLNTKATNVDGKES
Strand,E-score
TCCCCTAA,-0.156
CAGCTCGA,-0.0814
AGAGTCGG,0.0847
AGGTTGCG,-0.0213
CCCGTGCA,0.132
ATCGCTTG,0.134
AGGGCAGC,-0.13
ATGTCCGG,0.152
GTCGTTCA,0.0162
AAAATTTC,-0.0207
CCGCAACG,0.279
GCAACTCC,0.0177
TCTCAGAA,-0.183
AAATAGAT,-0.0826
GAACCGGA,0.166
AACTCATA,-0.146
CGACTCAA,-0.105
CAGCATCC,-0.00266
TAGCTAGA,-0.0417
CTACTACC,0.0151
GGTGAGCA,-0.158
GCGAGACC,0.0756

# Study 4
# Target: RNA binding protein fox-1 homolog 2, RRM domain, GST-SBP tag (RBFOX2, Homo sapiens, UniProt O43251-10, residues 100-194)
# Method: RNA Bind-n-Seq
# Molecule type: RNA
# Medium: in vitro
# Tested at: 365 nM
# Setting: natural RNA segment, single round, ends assumed
# Baseline: no-protein control
# Direction: higher = stronger binding
# Shared flanks, not repeated: GGGAGUUCUACAGUCCGACGAUC … UGGAAUUCUCGGGUGCCAA
Strand,RBNS enrichment (R)
AAAUAUGUAGCAGUCUGUUCCCGGAUGGCCCAGACGGAGGAAGCCACCCACCCCAGCCCUUCCGCUCUGCCUAGCUCUCCCCACCCCCUUCCAUAACCCAAUUCAGGUUU,0.381
UAAAAUGCGUUCAGAAAUUUGAUUUAUUCUUGGACUGUACUCUUCGCAUGGACUGGGAAGUUCUUUUAAAUCAUUAAAUAUUAAGACGACCAUCUCUUCUAUUAAAUUAC,3.33
GAAAAAGAACCAAUAAAUCACACAAUCUUUAUGUGCUUUCUAUAUGUAUUUCUUAGUAGUGAUACCAUUGAUCCUCUUACUUUUUUUACUCCAUUAAUACUAAUAAUUAU,0.423
CCACAGACACUCAACGCCAGCCUGUAAAAGCAACCGAGAAGUAGGCUGUACCCUGCAAUGCCAUAGGGGUGGAGCUGCCCAAGACCAUGGGAACCCACCUCCUGCAUCAG,0.982
UGCUUCGAGUGACUGACCCCAGUGGUAUCCUGUGACAUGUAACAGCCAGGAGUGUUAAGCGUUCAGUGAUGUGGGGUGAAAAGUUACUACCUGUCAAGGUUUGUGUUACC,0.613
UCCCUUGGCAAAUGGACACCAGGGGCUUCUCCCCUCAAAGCCAUACCCCGCCUCUGGGCGGGCAUGGGGGGUGGUGGGUGCCAGCCAGGGGCAUGGACAGAGCCUUUUUC,0.518
CUCUGUCUUACACACAUGCACACAUACACACACACUAAGUGCCUAGACUUUGAAUAGAUCUAGCAAUUGGACAUUAGUAAGCCUAAGUUUUUACAUGAUUGCAUUCCUAC,0.856
GUUUGUUCUUCAUAGGACCAAUUUUUAUUUGCAGCUUGAGUUUUUAUAUGAAGUUGCAUUAUUGUGGACUUGGCUGUCUUGUGAUGAAUUUUUUUCAUAUGUAUUCUGUG,0.858
UUACAGCACUUGGGAUUGUGUUUUCUUGUACAUUUUGUAUUUUAAAAAUCUUUUAUAGGAGUGCAGUGCUCCUAUACAAAGGGAAGAUGAGCCAGCAGUCCAGGCUCCUC,0.599
CCCGGAUGGCAGGGCAUGUUUCUGUUUUGGUGUCUCACUUUCCUCCCAGCGUGACUUAUUUGGGGAUUCCUCAGGGCCUACUGGAAUGUGACUGCCCACUGCCCAGCUGC,2.59
AAUAAAUCAAAUUGGAAGAAAUUGGUAAAAGGCAUUUUAGUAAUAUUGGAACUUUUUGAAGUGUGUGGGACUAUGAGAAGAAUUUCUUACUAACAUUUCCAAUAUCUGUA,0.609
AGACCCACUAUUUUGAGUAUUUUUUAUAGACUUUAAAUACUGGGUUUUUUUCCUCCUUCAAUCUCAGGCUUUUCUCCAUCUUUUAAGCAGCCUCUGUAACUCCCUUUUGU,0.528

# Study 5
# Target: Sal-like protein 4, full length isoform A (SALL4, Homo sapiens, UniProt Q9UJQ4, residues 1-1053)
# UniProt Q9UJQ4, sequence (whole entry, looked up): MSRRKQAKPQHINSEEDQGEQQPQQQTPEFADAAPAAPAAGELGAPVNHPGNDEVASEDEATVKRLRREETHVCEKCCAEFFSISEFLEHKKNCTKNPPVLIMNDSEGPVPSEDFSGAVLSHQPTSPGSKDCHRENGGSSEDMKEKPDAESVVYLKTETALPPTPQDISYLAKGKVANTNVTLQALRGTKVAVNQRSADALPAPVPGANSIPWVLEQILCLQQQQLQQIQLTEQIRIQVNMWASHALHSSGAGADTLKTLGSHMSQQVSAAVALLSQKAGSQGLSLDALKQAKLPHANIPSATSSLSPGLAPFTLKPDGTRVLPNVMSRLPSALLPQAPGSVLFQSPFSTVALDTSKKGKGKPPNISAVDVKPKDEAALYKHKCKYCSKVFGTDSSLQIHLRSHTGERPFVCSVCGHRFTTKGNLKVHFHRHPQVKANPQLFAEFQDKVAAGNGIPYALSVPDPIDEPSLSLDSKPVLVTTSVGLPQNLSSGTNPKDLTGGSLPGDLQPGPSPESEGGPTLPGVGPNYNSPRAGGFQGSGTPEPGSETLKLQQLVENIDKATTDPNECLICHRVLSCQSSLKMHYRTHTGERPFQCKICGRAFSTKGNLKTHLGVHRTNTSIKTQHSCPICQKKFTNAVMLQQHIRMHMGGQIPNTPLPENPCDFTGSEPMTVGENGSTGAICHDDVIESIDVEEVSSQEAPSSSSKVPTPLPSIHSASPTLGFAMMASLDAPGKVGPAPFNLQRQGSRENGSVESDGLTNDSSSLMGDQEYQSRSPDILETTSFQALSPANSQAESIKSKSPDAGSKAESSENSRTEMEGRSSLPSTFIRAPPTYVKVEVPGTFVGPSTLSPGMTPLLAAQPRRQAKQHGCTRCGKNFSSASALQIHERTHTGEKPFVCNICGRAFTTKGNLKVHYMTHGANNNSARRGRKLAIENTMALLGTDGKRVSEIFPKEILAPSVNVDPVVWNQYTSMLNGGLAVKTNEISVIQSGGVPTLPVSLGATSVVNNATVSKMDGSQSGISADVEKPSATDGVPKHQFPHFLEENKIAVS
# Method: universal PBM
# Molecule type: double-stranded DNA, one strand shown
# Medium: in vitro
# Tested at: 600 nM
# Setting: 8-mer, flanks averaged, mean of replicates
# Direction: higher = stronger binding
Strand,E-score
ACTCGAAA,0.0265
ACACAAGG,-0.106
TAGTGAGA,0.0286
ACAGCAGA,-0.0026
AGCTCCCG,-0.358
TGCGGCAA,-0.0893
ACTTATTA,0.397
AAACCTGT,0.135
AGCAGTTG,-0.262
TCCATGAA,0.248
AGACGTCA,-0.101
GTTATTCA,0.329
GATTCGAC,-0.0938
AGGTGGAA,0.0788
AGCCTTCC,-0.147
TCTGTGCA,0.0862
CATTCGAC,-0.0249
GCTACACA,0.077
CAGAAAAG,0.0401
TAATGCAA,0.284
AAACGGCG,-0.0923
ACCCGCAG,-0.0858
AAGACTTG,0.137

# Single results of other studies
Substance,target,assay,system,setting,scale,measurement,value
"PhoQ, residues 284 288 289 292 302 303 TLMATV","PhoP, residues 12 14 15 18 19 LHSVQ (Escherichia coli, UniProt P23836)","Sort-seq, item: YFP reporter",E. coli,"PhoQ-PhoP variant library, added: 10 µM Mg2+","baseline: high Mg2+ state, higher = stronger signaling",fold induction,2.89
